Published values of several laboratories.
Each numbered part is a random draw from the data of one study; scales do not carry over between parts.
Sequence of UniProt O75676 (whole entry, looked up): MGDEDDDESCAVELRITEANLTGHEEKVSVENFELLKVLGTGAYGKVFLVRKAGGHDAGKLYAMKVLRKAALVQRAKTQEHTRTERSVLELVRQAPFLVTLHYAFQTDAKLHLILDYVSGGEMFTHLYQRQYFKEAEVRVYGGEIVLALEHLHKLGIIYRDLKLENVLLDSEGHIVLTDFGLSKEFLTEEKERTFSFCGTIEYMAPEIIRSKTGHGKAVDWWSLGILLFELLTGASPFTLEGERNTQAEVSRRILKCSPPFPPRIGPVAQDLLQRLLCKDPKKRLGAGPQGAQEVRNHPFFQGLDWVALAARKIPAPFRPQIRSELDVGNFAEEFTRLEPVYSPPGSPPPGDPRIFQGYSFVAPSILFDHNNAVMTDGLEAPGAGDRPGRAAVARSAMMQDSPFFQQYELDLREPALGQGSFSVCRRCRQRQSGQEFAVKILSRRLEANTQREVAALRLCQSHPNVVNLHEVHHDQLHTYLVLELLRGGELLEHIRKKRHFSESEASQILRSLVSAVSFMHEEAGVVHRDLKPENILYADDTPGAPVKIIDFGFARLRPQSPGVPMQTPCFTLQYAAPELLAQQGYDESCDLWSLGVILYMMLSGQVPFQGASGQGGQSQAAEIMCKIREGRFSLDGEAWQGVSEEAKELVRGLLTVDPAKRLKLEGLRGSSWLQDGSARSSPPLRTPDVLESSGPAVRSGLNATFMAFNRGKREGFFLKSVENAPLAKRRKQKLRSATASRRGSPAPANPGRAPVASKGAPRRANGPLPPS
Sequence of UniProt P51956 (whole entry, looked up): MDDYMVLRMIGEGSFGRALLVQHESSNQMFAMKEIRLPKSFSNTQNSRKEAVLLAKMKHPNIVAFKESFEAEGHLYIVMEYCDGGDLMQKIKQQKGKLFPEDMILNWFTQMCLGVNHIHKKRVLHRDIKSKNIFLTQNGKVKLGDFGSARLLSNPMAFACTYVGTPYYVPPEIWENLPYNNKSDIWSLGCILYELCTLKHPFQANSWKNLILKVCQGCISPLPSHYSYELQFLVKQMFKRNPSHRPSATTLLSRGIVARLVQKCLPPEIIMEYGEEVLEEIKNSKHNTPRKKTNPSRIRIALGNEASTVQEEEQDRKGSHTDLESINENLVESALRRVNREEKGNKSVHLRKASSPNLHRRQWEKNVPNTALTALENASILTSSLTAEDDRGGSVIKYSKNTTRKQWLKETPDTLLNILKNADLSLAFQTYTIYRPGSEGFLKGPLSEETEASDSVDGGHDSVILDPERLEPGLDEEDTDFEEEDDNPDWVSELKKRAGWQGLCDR
Sequence of UniProt Q13464 (whole entry, looked up): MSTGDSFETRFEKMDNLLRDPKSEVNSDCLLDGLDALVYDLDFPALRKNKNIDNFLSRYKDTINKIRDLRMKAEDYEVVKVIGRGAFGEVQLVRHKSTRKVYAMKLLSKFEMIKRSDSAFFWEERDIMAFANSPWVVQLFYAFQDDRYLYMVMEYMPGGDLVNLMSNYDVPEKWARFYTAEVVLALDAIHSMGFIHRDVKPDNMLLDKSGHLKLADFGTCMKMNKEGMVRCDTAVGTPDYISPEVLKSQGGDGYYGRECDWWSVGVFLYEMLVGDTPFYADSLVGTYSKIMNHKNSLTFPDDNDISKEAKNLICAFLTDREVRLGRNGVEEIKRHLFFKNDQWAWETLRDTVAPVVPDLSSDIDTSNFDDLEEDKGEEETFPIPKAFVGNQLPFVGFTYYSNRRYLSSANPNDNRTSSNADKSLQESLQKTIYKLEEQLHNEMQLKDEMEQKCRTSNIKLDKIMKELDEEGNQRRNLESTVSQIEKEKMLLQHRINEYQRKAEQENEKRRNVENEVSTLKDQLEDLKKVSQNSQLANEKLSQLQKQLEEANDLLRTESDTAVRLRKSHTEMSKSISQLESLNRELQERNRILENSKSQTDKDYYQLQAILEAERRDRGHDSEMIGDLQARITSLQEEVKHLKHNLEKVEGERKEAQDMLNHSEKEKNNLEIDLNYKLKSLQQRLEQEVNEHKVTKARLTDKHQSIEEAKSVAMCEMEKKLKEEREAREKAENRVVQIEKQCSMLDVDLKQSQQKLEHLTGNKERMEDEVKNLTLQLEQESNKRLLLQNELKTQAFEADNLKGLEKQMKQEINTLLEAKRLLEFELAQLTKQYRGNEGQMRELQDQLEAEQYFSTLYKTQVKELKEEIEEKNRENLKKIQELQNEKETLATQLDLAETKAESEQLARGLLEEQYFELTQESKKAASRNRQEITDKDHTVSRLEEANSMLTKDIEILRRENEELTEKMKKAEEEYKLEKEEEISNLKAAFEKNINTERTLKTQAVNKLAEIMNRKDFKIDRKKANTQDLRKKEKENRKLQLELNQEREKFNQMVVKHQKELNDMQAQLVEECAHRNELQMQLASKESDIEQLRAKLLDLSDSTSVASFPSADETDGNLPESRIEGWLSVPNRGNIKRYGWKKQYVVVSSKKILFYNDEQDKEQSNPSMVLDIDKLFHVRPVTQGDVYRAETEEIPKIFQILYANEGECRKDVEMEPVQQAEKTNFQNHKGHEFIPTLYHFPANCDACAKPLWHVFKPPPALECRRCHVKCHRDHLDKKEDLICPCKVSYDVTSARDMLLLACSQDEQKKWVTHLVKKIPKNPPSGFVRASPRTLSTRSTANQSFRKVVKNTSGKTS
Sequence of UniProt Q13237 (whole entry, looked up): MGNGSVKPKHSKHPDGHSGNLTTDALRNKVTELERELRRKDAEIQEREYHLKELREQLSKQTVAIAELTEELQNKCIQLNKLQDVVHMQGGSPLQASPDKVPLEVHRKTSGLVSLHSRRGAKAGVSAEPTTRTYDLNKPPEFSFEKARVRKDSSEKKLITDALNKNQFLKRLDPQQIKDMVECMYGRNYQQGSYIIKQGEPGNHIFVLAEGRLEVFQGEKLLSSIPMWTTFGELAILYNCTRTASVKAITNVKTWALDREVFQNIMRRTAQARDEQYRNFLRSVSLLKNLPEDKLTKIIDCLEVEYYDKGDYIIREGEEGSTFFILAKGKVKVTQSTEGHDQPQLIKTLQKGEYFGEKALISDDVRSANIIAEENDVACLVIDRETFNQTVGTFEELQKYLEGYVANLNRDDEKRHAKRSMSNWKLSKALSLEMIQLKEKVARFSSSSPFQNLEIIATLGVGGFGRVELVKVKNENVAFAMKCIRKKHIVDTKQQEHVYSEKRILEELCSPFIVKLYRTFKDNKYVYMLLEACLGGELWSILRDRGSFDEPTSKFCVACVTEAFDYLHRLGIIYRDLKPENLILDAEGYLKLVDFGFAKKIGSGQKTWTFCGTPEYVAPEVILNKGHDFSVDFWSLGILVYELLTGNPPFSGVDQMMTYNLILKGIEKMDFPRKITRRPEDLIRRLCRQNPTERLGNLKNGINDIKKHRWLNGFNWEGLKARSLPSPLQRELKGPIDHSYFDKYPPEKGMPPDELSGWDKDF
Sequence of UniProt Q96L34 (whole entry, looked up): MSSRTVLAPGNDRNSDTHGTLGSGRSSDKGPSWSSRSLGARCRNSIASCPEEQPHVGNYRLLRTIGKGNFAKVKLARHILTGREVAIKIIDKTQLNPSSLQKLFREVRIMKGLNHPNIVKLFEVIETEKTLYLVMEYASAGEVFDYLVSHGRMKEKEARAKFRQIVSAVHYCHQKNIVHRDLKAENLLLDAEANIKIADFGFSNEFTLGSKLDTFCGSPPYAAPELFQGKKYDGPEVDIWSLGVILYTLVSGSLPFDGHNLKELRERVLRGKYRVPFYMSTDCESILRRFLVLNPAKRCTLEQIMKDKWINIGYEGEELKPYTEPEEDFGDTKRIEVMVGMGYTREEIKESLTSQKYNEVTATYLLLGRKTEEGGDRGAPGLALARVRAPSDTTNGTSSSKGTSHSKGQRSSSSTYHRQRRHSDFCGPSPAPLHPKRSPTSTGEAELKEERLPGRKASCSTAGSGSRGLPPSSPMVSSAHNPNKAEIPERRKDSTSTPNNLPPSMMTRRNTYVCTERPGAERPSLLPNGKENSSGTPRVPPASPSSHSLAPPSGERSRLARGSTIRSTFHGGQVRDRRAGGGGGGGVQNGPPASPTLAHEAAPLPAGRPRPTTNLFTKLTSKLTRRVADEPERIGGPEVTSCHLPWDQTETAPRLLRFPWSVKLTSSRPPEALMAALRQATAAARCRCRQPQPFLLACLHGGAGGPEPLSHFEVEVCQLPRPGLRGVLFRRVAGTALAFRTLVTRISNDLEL
Sequence of UniProt Q02750 (whole entry, looked up): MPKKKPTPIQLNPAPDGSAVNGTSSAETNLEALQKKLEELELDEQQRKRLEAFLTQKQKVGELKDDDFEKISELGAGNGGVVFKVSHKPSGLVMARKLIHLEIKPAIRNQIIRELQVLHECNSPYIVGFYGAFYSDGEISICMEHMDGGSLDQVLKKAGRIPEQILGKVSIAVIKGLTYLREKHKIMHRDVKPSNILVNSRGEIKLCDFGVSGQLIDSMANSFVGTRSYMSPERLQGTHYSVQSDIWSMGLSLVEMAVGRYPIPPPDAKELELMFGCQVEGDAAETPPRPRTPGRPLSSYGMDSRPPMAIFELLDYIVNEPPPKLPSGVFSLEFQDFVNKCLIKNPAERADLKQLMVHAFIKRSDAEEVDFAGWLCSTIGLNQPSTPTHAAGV
Sequence of UniProt P31751 (whole entry, looked up): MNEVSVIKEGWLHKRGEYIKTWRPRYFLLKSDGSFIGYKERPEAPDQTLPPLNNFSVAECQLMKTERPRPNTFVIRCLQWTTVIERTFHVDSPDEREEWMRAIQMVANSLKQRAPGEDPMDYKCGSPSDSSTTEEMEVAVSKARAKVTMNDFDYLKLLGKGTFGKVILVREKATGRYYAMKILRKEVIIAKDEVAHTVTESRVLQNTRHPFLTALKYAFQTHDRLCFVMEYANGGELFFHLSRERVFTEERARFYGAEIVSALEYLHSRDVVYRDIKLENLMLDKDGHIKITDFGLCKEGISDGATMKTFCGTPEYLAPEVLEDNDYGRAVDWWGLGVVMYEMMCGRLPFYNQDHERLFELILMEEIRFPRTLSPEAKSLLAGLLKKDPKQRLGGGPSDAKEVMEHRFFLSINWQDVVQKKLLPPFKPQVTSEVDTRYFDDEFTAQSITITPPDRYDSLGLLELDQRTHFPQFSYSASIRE

Block 1
Species: mouse
Sample: microsomes or S9
Concentration: 2 µM
Time: 0.5 h
SMILES	remaining compound
CC(C)NC(=O)c1[nH]cnc1C(=O)N1CCCCCC1	53.9%
O=C(CN1C(=O)CC2(CCCC2)C1=O)Nc1cccc(-c2nc[nH]n2)c1	44.2%
CCOC(=O)/C=N/N(c1ccccc1)c1ccccc1[N+](=O)[O-]	1.68%
Nc1cccc(-c2c3c(=O)[nH][nH]c(=O)c3c3n2CCC3)c1	> 99%
CN(c1nccc2c(Br)csc12)C1CCN(C(=O)OC(C)(C)C)CC1	0.539%
O=C1CN(C2CCCC2)C(=O)N1Cc1cc2c(cc1Br)OCO2	> 100%
COc1ccc2c(c1OC)C(=O)N1c3ccccc3C(=O)N(CC(=O)Nc3ccc4nc[nH]c4c3)C21 (centres unmarked)	73%

Block 2
SMILES: CC(C)(C)n1nc(Cc2cccc3ccccc23)c2c(N)ncnc21
Observed: enzyme activity
Mode: inhibitor
Concentration: 0.5 µM
Baseline: control
target	remaining activity [%]
Dual specificity mitogen-activated protein kinase kinase 1 (MAP2K1, Homo sapiens, UniProt Q02750)	101
Dual specificity protein kinase CLK3 (CLK3, Homo sapiens, UniProt P49761)	96.2
Ribosomal protein S6 kinase alpha-4 (RPS6KA4, Homo sapiens, UniProt O75676)	106
Mitogen-activated protein kinase 11 (MAPK11, Homo sapiens, UniProt Q15759)	95.2
RAC-beta serine/threonine-protein kinase (AKT2, Homo sapiens, UniProt P31751)	102
Misshapen-like kinase 1 (MINK1, Homo sapiens, UniProt Q8N4C8)	78.4
Hepatocyte growth factor receptor (MET, Homo sapiens, UniProt P08581)	93.1
Discoidin domain-containing receptor 2 (DDR2, Homo sapiens, UniProt Q16832)	121
Rho-associated protein kinase 1 (ROCK1, Homo sapiens, UniProt Q13464)	93.4
Cyclin-dependent kinase 9, with cyclin K (CDK9, Homo sapiens, UniProt P50750)	81.4
Serine/threonine-protein kinase Nek3 (NEK3, Homo sapiens, UniProt P51956)	95.5
cGMP-dependent protein kinase 2 (PRKG2, Homo sapiens, UniProt Q13237)	91
Calcium/calmodulin-dependent protein kinase type 1B (PNCK, Homo sapiens, UniProt Q6P2M8)	96.5
MAP/microtubule affinity-regulating kinase 4 (MARK4, Homo sapiens, UniProt Q96L34)	87.2

Block 3
SMILES: CCc1ccccc1C(=O)Nc1n[nH]c2c(C)c(F)c(C3C(C#N)=C(C)N(C)C(C)=C3C#N)cc12
Observed: cell-free assay
Technique: competition with immobilised ligand
Concentration: 1 µM
target	remaining binding [%]
Protein kinase C delta type (PRKCD, Homo sapiens, UniProt Q05655)	55
Mast/stem cell growth factor receptor Kit (KIT, Homo sapiens, UniProt P10721, T670I/V559D)	98
Homeodomain-interacting protein kinase 2 (HIPK2, Homo sapiens, UniProt Q9H2X6)	100
Mitogen-activated protein kinase kinase kinase 14 (MAP3K14, Homo sapiens, UniProt Q99558)	75
cGMP-dependent protein kinase 1 (PRKG1, Homo sapiens, UniProt Q13976)	100
Serine/threonine-protein kinase Nek11 (NEK11, Homo sapiens, UniProt Q8NG66)	100
Activated CDC42 kinase 1 (TNK2, Homo sapiens, UniProt Q07912)	81

Other studies, line by line
Compound	species	dose	setting	quantity	value
CC(C)n1cnc(-c2ccc(F)cc2)c1-c1ncc(C(=O)Nc2ccc(N3CCN(C)CC3)cc2)[nH]1	human, idiopathic pulmonary fibrosis	30 mg twice daily	trial, without standard of care	serious treatment-related AEs	0%
